Measurements collected from several papers.
A part holds a random share of what one study measured.

Study 1
Target: RNA binding protein fox-1 homolog 2, RRM domain, GST-SBP tag (RBFOX2, Homo sapiens, UniProt O43251-10, residues 100-194)
Method: RNA Bind-n-Seq
Molecule type: RNA
Medium: in vitro
Concentration: 365 nM
Notes: natural RNA segment, single round, ends assumed
Reference: no-protein control
Reading: higher = stronger binding
Residues (chain): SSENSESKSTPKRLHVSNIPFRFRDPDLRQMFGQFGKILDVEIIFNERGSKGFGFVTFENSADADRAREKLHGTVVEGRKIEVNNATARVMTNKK
Under “RBNS enrichment (R)”, `GGGAGUUCUACAGUCCGACGAUCCUCCAAUGCCAAUUCUUUGGUUUCUUCUUCUUGGCAGUGUUGAAGCUAGAACUCAGGGCGCUGAAUACUAAGCAAGCAUUCUUCCGGGAGCCAUAUUCGCAGUCUUCGUUUGGAAUUCUCGGGUGCCAA` is recorded as 0.538.
For `GGGAGUUCUACAGUCCGACGAUCUACUUUUCGUUGGCAAGGUGACCCGGCCUGAGGAGGGACUCCUUCUGAAACUCAUGGGCUUACACAGAGGGAGCCAGGCAUGUUCUUCAGCCCAUCCAUCUCUUGGUUGCUGGAAUUCUCGGGUGCCAA`, “RBNS enrichment (R)” read 7.14.
Under “RBNS enrichment (R)”, `GGGAGUUCUACAGUCCGACGAUCUUGGAGCCUAUAAUUUUUUUACCUUACAUUUUAGGUAGAAACCAAAUAAAAGAUUUUGCUAAGAAGAUGUUUUGUUUUGUGUGUGGUGCUAAGGAUUAACAUUAGGGCCUUGGAAUUCUCGGGUGCCAA` is recorded as 0.356.
`GGGAGUUCUACAGUCCGACGAUCGGAAGAAAGCAGAAAGUUCAACUUCCAAAGGGUUAGGACUCUCCACUCAAUGUCUUAGGUCAGGAGUUGUGUCUAGGCUGGAAGAGCCAAAGAAUAUUCCAUUUUCCUUUUGGAAUUCUCGGGUGCCAA` — result for “RBNS enrichment (R)”: 0.27.

Study 2
Target: Centromere-binding protein 1, full length, N-terminal tag (CBF1, Saccharomyces cerevisiae, UniProt P17106, residues 1-351)
UniProt P17106, sequence (whole entry, looked up): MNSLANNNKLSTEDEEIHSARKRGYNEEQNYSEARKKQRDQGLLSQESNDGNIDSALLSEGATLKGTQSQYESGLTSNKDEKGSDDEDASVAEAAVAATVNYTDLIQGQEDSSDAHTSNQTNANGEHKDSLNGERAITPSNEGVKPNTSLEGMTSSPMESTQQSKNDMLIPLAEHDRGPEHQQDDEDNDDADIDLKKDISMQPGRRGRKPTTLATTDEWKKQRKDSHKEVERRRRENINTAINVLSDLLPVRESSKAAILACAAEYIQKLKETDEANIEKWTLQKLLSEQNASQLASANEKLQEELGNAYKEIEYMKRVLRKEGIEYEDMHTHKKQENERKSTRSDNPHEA
Method: protein-binding microarray
Molecule type: double-stranded DNA, one strand shown
Medium: in vitro
Concentration: 0.8 µM
Notes: whole 60-bp probe, no competitor
Reading: higher = stronger binding
The fluorescence intensity of `CCTAACTACTATATTACCACCAGATAGCTTCGTACAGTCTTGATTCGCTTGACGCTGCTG` is reported as 543 a.u.
With `GAAATAGTATACAGGTGATTCTTATTTATCCCATAGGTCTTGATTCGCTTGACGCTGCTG` the fluorescence intensity was 975 a.u.
`GAAACTCTTCTTCGACACGTGTCGAGAAAAAAATAGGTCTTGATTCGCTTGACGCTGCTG` gave a fluorescence intensity of 11400 a.u.
The fluorescence intensity of `CTAAGAAACATACATCATCACTCAGACGATAAGTTCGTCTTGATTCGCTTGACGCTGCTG` is reported as 537 a.u.
`GAATTTCGTCATCCCCACGTTGTGCCATTAATTTAGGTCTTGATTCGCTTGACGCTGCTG` has a fluorescence intensity of 625 a.u.
`CCTAACTACTATAACTACCTGATATAGCTTCGTACAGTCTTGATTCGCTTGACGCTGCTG` has a fluorescence intensity of 530 a.u.
`CCTAACTACTATAATGGTGACGCATAGCTTCGTACAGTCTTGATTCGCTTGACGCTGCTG` gave a fluorescence intensity of 533 a.u.
For `CTAGTCCGATACCATCACCTTCAATGAACGAGATTCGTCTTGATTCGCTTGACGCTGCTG`, the fluorescence intensity was 469 a.u.

Study 3
Target: RING finger protein unkempt homolog, zinc fingers 1-6, GST-SBP tag (UNK, Homo sapiens, UniProt Q9C0B0, residues 30-357)
UniProt Q9C0B0, sequence (30-357, looked up): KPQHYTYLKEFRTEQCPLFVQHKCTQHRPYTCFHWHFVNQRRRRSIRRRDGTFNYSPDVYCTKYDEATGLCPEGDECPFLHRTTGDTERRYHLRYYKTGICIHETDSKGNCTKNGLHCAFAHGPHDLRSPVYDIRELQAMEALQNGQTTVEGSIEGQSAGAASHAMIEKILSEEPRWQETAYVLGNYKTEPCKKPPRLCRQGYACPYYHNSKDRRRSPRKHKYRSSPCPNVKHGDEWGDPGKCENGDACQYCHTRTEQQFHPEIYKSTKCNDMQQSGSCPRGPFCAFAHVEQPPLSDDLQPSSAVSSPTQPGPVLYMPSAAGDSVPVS
Method: RNA Bind-n-Seq
Molecule type: RNA
Medium: in vitro
Concentration: not given
Notes: RNA with constant flanks, human-mouse chimeric sites, ends assumed
Reference: input RNA pool
Reading: higher = stronger binding
`GGGAGUUCUACAGUCCGACGAUCCCCUCCCCGGGCCACCCACCCCUCCCGGCUCCCCGCCAGAGCAAGGUUUUCUUCUUAUUUCAUAGCAAGCCAGAACAAUGUUCUACGCACAUUUUGUCCUCAGUAAACGAGGGCCUCUGGCAACAGAGGAUUGAGCAUCA` gave a bound/input enrichment of 0.642 ratio.
`GGGAGUUCUACAGUCCGACGAUCGGGUGGGGGUUGUCAUUCGUUUGAGCUGCUGAUUUUCAUGAGUCGCCUUCAAAACUCUCGUGUAGGGUUGACAAUGUGGGGGGGUGGGGGAUCCAGCUUAUUCUUUUAUUUUCAAGUCCACAACAGAGGAUUGAGCAUCA` has a bound/input enrichment of 0.578 ratio.
For `GGGAGUUCUACAGUCCGACGAUCAAAUCAUGUGUGUCCAAUAUUGAAAGUACUUUAUCUGCACUCCAGUAUGUAAGCAGUAUAGUAGUUUCUUUAGAGAAUAGGUCAGCCAUUGUAAAGUACAAUGCAAGCUUAGUCACUCCACAACAGAGGAUUGAGCAUCA`, the bound/input enrichment was 3.02 ratio.

Other studies, line by line
`MYH9 (Homo sapiens, UniProt P35579)`: interaction screen “cross-linked” (MYH10 (Homo sapiens, UniProt P35580); cross-linking MS; hits only).
